Measurements collected from several papers.
Each line is one published result; not all experiments were run side by side. Numbers after ± are the reported error.

| Compound | cell line | assay | setting | IC50 |
| --- | --- | --- | --- | --- |
| CC(C)c1cccc(C(C)C)c1-n1c[n+](-c2c(C(C)C)cccc2C(C)C)c2c1-c1cccc3cccc-2c13.[Cl][Pd-]([Cl])[CH2]C=Cc1ccccc1 | C13 cisplatin-resistant | cell viability, MTT | 72 h | 5.5 ± 0.4 µM |
| NC(=S)N/N=C/c1ccc(OCc2cccc(F)c2)cc1 | IMR-32 | cell growth or viability, MTT | 24 h | 14.3 µg/mL |
| c1ccc(-c2cc(-c3ccc4ccccc4n3)c3c4nncn4c4nncn4c3n2)cc1 | RPE-1 | cell growth or viability, MTT | 48 h | 20.9 µM |
| O=S(=O)([O][Pt]([O]S(=O)(=O)C(F)(F)F)([PH](c1ccccc1)(c1ccccc1)c1ccc[cH-]1)[PH](c1ccccc1)(c1ccccc1)c1ccc[cH-]1)C(F)(F)F.[Fe+2] | SNU80 | cell growth, MTT | 24 h | 70.1 µM |
| CC[C@H](C)[C@H](NC(=O)[C@H](CCCNC(=N)N)NC(=O)[C@H](CCCNC(=N)N)NC(=O)[C@H](CCCNC(=N)N)NC(=O)[C@@H](NC(=O)[C@@H](NC(=O)[C@H](C)NC(=O)[C@H](CCCNC(=N)N)NC(=O)[C@H](CCCNC(=N)N)NC(=O)[C@H](CCCNC(=N)N)NC(=O)[C@@H]1CCCN1C(=O)[C@@H](N)CCCNC(=N)N)[C@@H](C)O)[C@@H](C)O)C(=O)N[C@H](C(=O)N[C@H](C(=O)NCC(=O)N[C@H](C(=O)N[C@@H](CCCNC(=N)N)C(=O)N[C@@H](CCCNC(=N)N)C(=O)N[C@@H](CCCNC(=N)N)C(=O)N[C@@H](CCCNC(=N)N)C(N)=O)[C@@H](C)O)[C@@H](C)O)[C@@H](C)O | BT-20 | cell viability, CellTiter-Blue | 24 h, serum-free medium | 88.8 ± 1 µM |
| NC1CC1c1ccc(NC(=O)c2ccc(-c3ccccc3)cc2)cc1 (centres unmarked) | MV4-11 (AML) |  |  | 2.3 ± 0.04 µM |
| CC(C)C[C@H](NC(=O)[C@H](CCCCN)NC(=O)[C@H](CC(C)C)NC(=O)[C@H](CC(C)C)NC(=O)[C@H](CCCCN)NC(=O)[C@H](CCCCN)NC(=O)[C@H](CC(C)C)NC(=O)[C@H](CC(C)C)NC(=O)[C@H](CCCCN)NC(=O)[C@H](CC(C)C)NC(=O)[C@H](CC(C)C)NC(=O)[C@H](CCCCN)NC(=O)[C@H](CCCCN)NC(=O)[C@H](CC(C)C)NC(=O)[C@@H](N)CSSC[C@H](N)C(=O)N[C@@H](CC(C)C)C(=O)N[C@@H](CCC(=O)O)C(=O)N[C@@H](CCC(=O)O)C(=O)N[C@@H](CC(C)C)C(=O)N[C@@H](CC(C)C)C(=O)N[C@@H](Cc1c[nH]cn1)C(=O)N[C@@H](Cc1c[nH]cn1)C(=O)N[C@@H](CC(C)C)C(=O)N[C@@H](CCC(=O)O)C(=O)N[C@@H](CCC(=O)O)C(=O)N[C@@H](CC(C)C)C(=O)N[C@@H](CC(C)C)C(=O)N[C@@H](Cc1c[nH]cn1)C(=O)N[C@@H](Cc1c[nH]cn1)C(N)=O)C(N)=O | HK-2 | cell growth or viability, MTT | pH 7.4 | > 100 µM |
| O=C1[O][Pt]2([OH])([OH])([NH]C3CCCCC3[NH]2)[O]C1=O (centres unmarked) | A2780 | cell growth or viability, resazurin | 72 h | 4.03 µM |
| CC(C)C[C@H](NC(=O)[C@H](C)NC(=O)[C@H](CCCCN)NC(=O)[C@H](C)NC(=O)[C@H](C)NC(=O)[C@@H]1CSCc2ccc(cc2)CSC[C@H](NC(=O)[C@H](CCCCN)NC(=O)[C@H](Cc2ccccc2)NC(=O)CN)C(=O)N[C@@H](CC(C)C)C(=O)N[C@@H](CC(C)C)C(=O)N[C@@H](CCCCN)C(=O)N1)C(=O)N[C@H](C(=O)N[C@@H](CCCCN)C(=O)N[C@H](C(=O)N[C@H](C(=O)N[C@@H](CC(C)C)C(=O)N[C@@H](Cc1ccccc1)C(N)=O)C(C)C)[C@@H](C)O)C(C)C | U87 | cell proliferation, CCK-8 | 48 h | 18.2 µM |
| CC(C)C[C@H](NC(=O)[C@H](CCCCN)NC(=O)[C@H](CC(C)C)NC(=O)[C@H](CC(C)C)NC(=O)[C@H](CCCCN)NC(=O)[C@H](CCCCN)NC(=O)[C@H](CC(C)C)NC(=O)[C@H](CC(C)C)NC(=O)[C@H](CCCCN)NC(=O)[C@H](CC(C)C)NC(=O)[C@H](CC(C)C)NC(=O)[C@H](CCCCN)NC(=O)[C@H](CCCCN)NC(=O)[C@@H](N)CC(C)C)C(N)=O | HK-2 | cell growth or viability, MTT | pH 7.4 | 8.6 µM |
| Cc1ccc(C(c2c(C)nn(-c3ccccc3)c2O)c2c(C)nn(-c3ccccc3)c2O)cc1 | HEK293 | cell growth or viability, MTT | 48 h | > 40 µM |
| COC(=O)CC[C@@H](NC(=O)[C@@H](Cc1ccc(OP(=O)(O)O)cc1)NC(=O)[C@@H](Cc1ccccc1)NC(=O)[C@@H](Cc1ccccc1)NC(=O)Cc1ccc2ccccc2c1)C(=O)OC | A2780-res | cell viability | 72 h | > 200 µM |
| O=C(Cc1ccc2ccccc2c1)N[C@H](Cc1ccccc1)C(=O)N[C@H](Cc1ccccc1)C(=O)N[C@H](Cc1ccc(OP(=O)(O)O)cc1)C(=O)N[C@H](Cc1ccc(OP(=O)(O)O)cc1)C(=O)O | A2780cis | cell growth or viability, MTT |  | > 483 µg/mL |
| [Cl][Ag].[Se]=c1n(C2CCCCC2)ccn1C1CCCCC1 | LoVo MDR | MTT | 72 h | 6.9 ± 1.1 µM |
| COc1cccc2c1cc([N+](=O)[O-])c1c(C(=O)O)cc3c(c12)OCO3 | HK-2 |  |  | 102 µM |
| Cc1cc(C)c(-n2ccn(-c3c(C)cc(C)cc3C)c2=[Se])c(C)c1.[Cl][Ag] | A-431 | cell growth or viability, MTT | 72 h | 0.4 µM |
| CCCCCCCCCCCCN(CCCCCCCCCCCC)C1=[S+][Au-]2([S]1)[c]1ccccc1-c1cccc[c]12 | BT-333 glioblastoma | MTT | 72 h | 89.1 µM |
| CCc1c2c(nc3ccc(O)cc13)-c1cc3c(c(=O)n1C2)COC(=O)[C@@]3(CC)OC(=O)[C@H](CC(C)C)NC(=O)[C@H](CCC(N)=O)NC(=O)[C@H](CC(C)C)NC(=O)[C@H](CCCCN)NC(=O)[C@H](CO)NC(=O)[C@H](CO)NC(=O)[C@H](Cc1c[nH]cn1)NC(=O)COCCOCCOCCNC(=O)CCCCC(=O)N1Cc2ccccc2-c2c(nnn2CCOCCOCCOCCOCCC(=O)N[C@@H](Cc2c[nH]cn2)C(=O)N[C@@H](CO)C(=O)N[C@@H](CO)C(=O)N[C@@H](CCCCN)C(=O)N[C@@H](CC(C)C)C(=O)N[C@@H](CCC(N)=O)C(=O)N[C@@H](CC(C)C)C(=O)O[C@@H](C(=O)O[C@H]2C[C@@]3(O)[C@@H](OC(=O)c4ccccc4)[C@@H]4[C@]5(OC(C)=O)CO[C@@H]5C[C@H](OC)[C@@]4(C)C(=O)[C@H](OC)C(=C2C)C3(C)C)[C@@H](NC(=O)OC(C)(C)C)c2ccccc2)-c2ccccc21 | LNCaP | cell growth or viability, XTT | 72 h | 0.00071 µM |
| C=C(C)CC(OC)C(O)C(=O)NC(OC)C1CC(=NOC)C(C)(C)C(CC(O)C(C)C2Cc3c(C)c(O)cc(O)c3C(=O)O2)O1 (single isomer, unassigned; (+)) | A2058 | cell growth or viability |  | 0.0005 µM |
| CC(C)C[C@H](NC(=O)[C@H](CCCCN)NC(=O)[C@H](CC(C)C)NC(=O)[C@H](CC(C)C)NC(=O)[C@H](CCCCN)NC(=O)[C@H](CCCCN)NC(=O)[C@H](CC(C)C)NC(=O)[C@H](CC(C)C)NC(=O)[C@H](CCCCN)NC(=O)[C@H](CC(C)C)NC(=O)[C@H](CC(C)C)NC(=O)[C@H](CCCCN)NC(=O)[C@H](CCCCN)NC(=O)[C@H](CC(C)C)NC(=O)[C@@H](N)CSSC[C@H](N)C(=O)N[C@@H](CC(C)C)C(=O)N[C@@H](CCC(=O)O)C(=O)N[C@@H](Cc1c[nH]cn1)C(=O)N[C@@H](CC(C)C)C(=O)N[C@@H](CC(C)C)C(=O)N[C@@H](CCC(=O)O)C(=O)N[C@@H](Cc1c[nH]cn1)C(=O)N[C@@H](CC(C)C)C(=O)N[C@@H](CCC(=O)O)C(=O)N[C@@H](Cc1c[nH]cn1)C(=O)N[C@@H](CC(C)C)C(=O)N[C@@H](CC(C)C)C(=O)N[C@@H](CCC(=O)O)C(=O)N[C@@H](Cc1c[nH]cn1)C(N)=O)C(N)=O | HK-2 | cell growth or viability, MTT | pH 6 | 12.2 µM |
| O=C(Cc1ccc2ccccc2c1)N[C@H](Cc1ccc(OP(=O)(O)O)cc1)C(=O)N[C@H](Cc1ccccc1)C(=O)N[C@H](Cc1ccccc1)C(=O)N[C@H](Cc1ccc(OP(=O)(O)O)cc1)C(=O)O | A2780cis | cell growth or viability, MTT |  | > 483 µg/mL |
| CC(C)C[C@H](NC(=O)[C@H](CCCCN)NC(=O)[C@H](CC(C)C)NC(=O)[C@H](CC(C)C)NC(=O)[C@H](CCCCN)NC(=O)[C@H](CCCCN)NC(=O)[C@H](CC(C)C)NC(=O)[C@H](CC(C)C)NC(=O)[C@H](CCCCN)NC(=O)[C@H](CC(C)C)NC(=O)[C@H](CC(C)C)NC(=O)[C@H](CCCCN)NC(=O)[C@H](CCCCN)NC(=O)[C@H](CC(C)C)NC(=O)[C@@H](N)CSSC[C@H](N)C(=O)N[C@@H](CC(C)C)C(=O)N[C@@H](Cc1c[nH]cn1)C(=O)N[C@@H](CCC(=O)O)C(=O)N[C@@H](CC(C)C)C(=O)N[C@@H](CC(C)C)C(=O)N[C@@H](CCC(=O)O)C(=O)N[C@@H](Cc1c[nH]cn1)C(=O)N[C@@H](CC(C)C)C(=O)N[C@@H](Cc1c[nH]cn1)C(=O)N[C@@H](CCC(=O)O)C(=O)N[C@@H](CC(C)C)C(=O)N[C@@H](CC(C)C)C(=O)N[C@@H](CCC(=O)O)C(=O)N[C@@H](Cc1c[nH]cn1)C(N)=O)C(N)=O | HK-2 | cell growth or viability, MTT | pH 7.4 | > 100 µM |
| CSC(=NNC(=O)c1ccc([N+](=O)[O-])cc1)SC | A549 or HCT-116 | cytotoxicity, MTT | approximate value | ~100 µM |

A few entries again:
| Compound | cell line | assay | setting | IC50 |
| --- | --- | --- | --- | --- |
| O=C(Cc1ccc2ccccc2c1)N[C@H](Cc1ccc(OP(=O)(O)O)cc1)C(=O)N[C@H](Cc1ccccc1)C(=O)N[C@H](Cc1ccccc1)C(=O)N[C@H](Cc1ccc(OP(=O)(O)O)cc1)C(=O)O | A2780cis | cell growth or viability, MTT |  | > 483 µg/mL |
